Assay results from different studies.
Every numbered part comes from another study and shows a few of its results, in no order.
Chain of UniProt Q6P2M8 (whole entry, looked up): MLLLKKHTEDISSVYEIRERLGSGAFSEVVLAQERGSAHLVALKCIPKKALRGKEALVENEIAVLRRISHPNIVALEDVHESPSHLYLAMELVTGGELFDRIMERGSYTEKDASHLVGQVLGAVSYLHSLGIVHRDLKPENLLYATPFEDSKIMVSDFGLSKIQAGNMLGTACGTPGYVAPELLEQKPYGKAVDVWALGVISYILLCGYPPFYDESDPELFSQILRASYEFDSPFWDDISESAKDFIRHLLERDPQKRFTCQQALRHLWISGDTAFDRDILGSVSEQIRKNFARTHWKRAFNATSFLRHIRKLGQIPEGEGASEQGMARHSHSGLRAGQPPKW

Series 1 — method: DNA-protein interaction ELISA; molecule type: double-stranded DNA, one strand shown; sample: in vitro, bacterial lysate; tested at: not given; notes: whole dsDNA probe, crude lysate protein; relative to: highest signal in screen; reading: higher = stronger binding
Target: Probable WRKY transcription factor 50, DNA-binding domain (WRKY50, Arabidopsis thaliana, UniProt Q8VWQ5, residues 99-173)
Construct (chain): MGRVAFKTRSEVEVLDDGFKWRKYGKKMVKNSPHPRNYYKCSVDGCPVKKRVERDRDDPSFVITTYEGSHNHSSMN
| Strand | relative absorbance |
| --- | --- |
| AAAAAAACTTTCTATTCTGGATAAGTAAAA | 44.7 % of maximum |
| AAAAAACCGCTTACATTGCGTTGTCGAAAA | 10.9 % of maximum |
| AAAAAATGCAGACCTTCAGCTGGGTAAAAA | 16.3 % of maximum |
| AAAAAATTTGTTCGGGCTCATAACTGAAAA | 14 % of maximum |
| AAAAAATATCGGGCACGGTCTTGTCTAAAA | 40.5 % of maximum |
| AAAAAACGTTAACACTGATTTAGGGTAAAA | 12.5 % of maximum |
| AAAAAACTTGCTCCTCCGTTTTACTCAAAA | 20.7 % of maximum |
| AAAAAATGAATCAATTTTTGGGCTTTAAAA | 17.2 % of maximum |

Series 2 — method: RNA Bind-n-Seq; molecule type: RNA; sample: in vitro; tested at: not given; notes: RNA with constant flanks, ends assumed; relative to: input RNA pool; reading: higher = stronger binding
Target: RING finger protein unkempt homolog, zinc fingers 1-6, GST-SBP tag (UNK, Homo sapiens, UniProt Q9C0B0, residues 30-357)
Chain of UniProt Q9C0B0 (30-357, looked up): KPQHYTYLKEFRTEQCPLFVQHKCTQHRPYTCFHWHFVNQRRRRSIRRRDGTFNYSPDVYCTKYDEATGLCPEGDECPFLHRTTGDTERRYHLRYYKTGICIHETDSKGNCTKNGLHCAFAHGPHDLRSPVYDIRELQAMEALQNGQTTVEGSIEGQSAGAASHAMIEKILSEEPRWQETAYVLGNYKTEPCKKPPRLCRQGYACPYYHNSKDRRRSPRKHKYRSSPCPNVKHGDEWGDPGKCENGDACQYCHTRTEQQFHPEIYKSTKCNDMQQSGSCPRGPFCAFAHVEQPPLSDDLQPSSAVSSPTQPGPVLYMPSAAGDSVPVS
All sequences stand within: GGGAGUUCUACAGUCCGACGAUC … CAACAGAGGAUUGAGCAUCA
| Strand | bound/input enrichment [ratio] |
| --- | --- |
| AAGAAAGAGCAUGCAGCUAUCAUUCUUUGGAACACUACAUCUUGGAAACAGGUGCAGAAUUCCGUUUUCCACAGUUUGACAGUCACGCAGAUGGCCUUCUCACCUAAUGAGAAGUUCUUA | 0.143 |
| CCCACGCCCUCCCUCUCCCAGGCCCGAGAUGUGACCCACCAGUGCCUUCUGUCUGCUCGUCCGCUUUAAUCAAUCAUGCCCUGCCUUGUCCCUCUCACUCCCCAGCCCCACCCCUAAGUG | 0.991 |
| AACCUCUGCAAGCUCAUGAAAGAAAUCUUAGAUAAGAAGGUUGAGAAGGUGACAAUCUCCAACCGACUUGUGUCUUCACCUUGCUGCAUUGUGACCAGCACCUACGGCUGGACAGCCAAU | 0.16 |
| UUAUUUAAGCAUUGAGUGCAUUAGAAUUUAUUUACAGAGUGCAUGAUGUUCUGACUCCCGUUCCGAUUUAUUUAAGAAACCAAAUCUCCAGAUUUUUUCAGGACACAGGAUCUUAGACUU | 2.88 |
| UUAAUUAAAGAAACAAAGCUCUCCACUGAGCCAAGUCCAGAGUUCUCUAAUUAUUCAGAAACCGCAAAAUUUGAGAAGUCGGUGCCUGAUCACUGUGAGCUCGUGGAUGAUUCCUCACCC | 0.146 |
| AUAAUGAAAACAGUGAAGGGUUUUUUUUAUGUUUCAUUACUUCUUGGCAUUCUGAAGGAGACCGCUGGAAACACCAUAAUUCACAAAACAGAUUCAGAUGAAAAAGUCACAGUGCUGUUU | 0.235 |
| AGGCGGAGAGAACUGGCACUCUUCUCGGAUGACCGUUCACGGACAGUACAAUACCACAUAUACCGUGUACACACACAUACAAAUGUGUCGAUGCCCAUUCACAAACAGUACAGUACACGC | 0.101 |
| CUGCCUACCUCAGAGCAUAAAUGCAUACAUUCUAGAGAAGAUGAAGACUUAAUUGAAAAUUCCGCCCAAGAUGAAACAUCUAGGCUGGACCUUGGAUUUGAGGAGUGGGAUGUAGCUGGC | 0.217 |

Other studies, line by line
| Molecule | target | test | system | setting | scale | measurement | value |
| --- | --- | --- | --- | --- | --- | --- | --- |
| PhoQ, residues 284 288 289 292 302 303 TVTVVA | PhoP, residues 12 14 15 18 19 NMSSL (Escherichia coli, UniProt P23836) | Sort-seq, measured: YFP reporter | E. coli | PhoQ-PhoP variant library, added: 10 µM Mg2+ | relative to: high Mg2+ state, higher = stronger signaling | fold induction | 10.9 |
| O=C1NC(=O)C(c2c[nH]c3ccccc23)=C1c1c[nH]c2ccccc12 | PNCK (Homo sapiens, UniProt Q6P2M8) | enzyme activity, inhibitor | – | 0.5 µM | relative to: control | remaining activity | 93.3% |
